# Experimental data of several laboratories.
# Numbered parts are unrelated; each lists some results of a single study. “And” joins repeats or separate records; there may be more than shown.

# Block 1 — organism: Leishmania donovani; observed: parasite growth
# SMILES: c1ccc(Oc2ccc(Nc3c4c(nc5ccccc35)CCC4)cc2)cc1
test system,conditions,inhibition
"DD8 amphotericin B-resistant, promastigotes",66.66 µM,99% and 100%
,"2 µM, intracellular, amastigote",7%
,"80 µM, intracellular, amastigote",100%
,"16.66 µM, promastigote",75%
"DD8 amphotericin B-resistant, intracellular amastigotes",0.04 µM,2% and 1% and 4%
"DD8 amphotericin B-resistant, intracellular amastigotes",40 µM,100%
"DD8 amphotericin B-resistant, promastigotes",0.016 µM,2% and 5%

# Block 2 — cell line: HEK-293T; observed: pseudovirus infection; method: FDA-approved drug library counter-screen; organism: VSV pseudotyped with VSV-G; tested at: 10 µM; time: 16 h; baseline: vehicle-treated
Compound,GFP-positive cells
C[C@H](CS)C(=O)N1CCC[C@H]1C(=O)O,107%
Cc1ccc(N(CC2=NCCN2)c2cccc(O)c2)cc1,104%
Cc1ccccc1C(=O)Nc1ccc(C(=O)N2CCCC(O)c3cc(Cl)ccc32)c(C)c1 (stereo not shown),116%
CC(C)n1c(/C=C/C(O)CC(O)CC(=O)O)c(-c2ccc(F)cc2)c2ccccc21 (stereo not shown),118%
O=C(c1ccc(F)c(F)c1Nc1ccc(I)cc1F)N1CC(O)([C@@H]2CCCCN2)C1,145%
CC(C)c1nc(CN(C)C(=O)N[C@H](C(=O)N[C@@H](Cc2ccccc2)C[C@H](O)[C@H](Cc2ccccc2)NC(=O)OCc2cncs2)C(C)C)cs1,80.6%
CC1CNc2c(cccc2S(=O)(=O)N[C@@H](CCCNC(=N)N)C(=O)N2CC[C@@H](C)C[C@@H]2C(=O)O)C1 (stereo partly shown),99.4%

# Single results of other studies
SMILES,tested on,assay,test system,conditions,how to read,endpoint,result
CNC(=O)c1ccc(-c2cnn3ccc(C(=O)N(C)c4ccc(Cl)c(C(=O)OC)c4)cc23)cc1,Cryptosporidium parvum,time-kill,nanoluciferase-expressing,9.15 nM,,kill half-life,15.7 h
CO[C@@H]1[C@@H](OC(N)=O)[C@@H](O)[C@H](Oc2ccc3c(O)c(NC(=O)c4ccc(O)c(CC=C(C)C)c4)c(=O)oc3c2C)OC1(C)C,RPE-1 BRCA1-/- PARPi-resistant R1,clonogenic,,"100 µM, 12 to 14 d",baseline: untreated,surviving fraction,4.01% and 6.17% and 4.17%

# Repeated from above (block 2):
Compound,GFP-positive cells
CC(C)c1nc(CN(C)C(=O)N[C@H](C(=O)N[C@@H](Cc2ccccc2)C[C@H](O)[C@H](Cc2ccccc2)NC(=O)OCc2cncs2)C(C)C)cs1,80.6%
O=C(c1ccc(F)c(F)c1Nc1ccc(I)cc1F)N1CC(O)([C@@H]2CCCCN2)C1,145%
Cc1ccc(N(CC2=NCCN2)c2cccc(O)c2)cc1,104%
